Published values collected from several papers.
Several values in a cell are separate wells, animals, samples, runs or records.
Observed: metabolic stability
Host: human

C[N+]1(CC(=O)OC2CCCCCCCCCCC2)CCCCC1 — half-life (liver microsomes): 0.0567 h
Cc1cc2c(cc1O)C=C1C=CC(=O)C(C)(C)[C@H]1CC2 — half-life (liver microsomes; 1 mM, pH 7.4): 0.478 h
CCC(=O)NC1CC=C(c2cc3c(Nc4cc5ncsc5cc4F)ncnc3s2)CC1 (racemic) — half-life (liver microsomes): > 2 h
CCN(c1nc(N[C@H](CC(N)=O)C(=O)NC)nc(N2CCN(c3ccccc3C#N)CC2)n1)C1CCCCC1 — half-life (liver microsomes): 2.5 h
CC(=O)N1CCC=C(c2cc3c(Nc4cc5ncsc5cc4F)ncnc3s2)C1 — half-life (liver microsomes): > 2 h
[2H]c1c(NS(C)(=O)=O)c([2H])c2c(C(=O)c3ccc(OCCCN(CCCC)CCCC)cc3)c(CCCC)oc2c1[2H] — half-life (liver microsomes; 1 µM): 0.171 h
CCc1nc(N)nc(N)c1C#CC(C)c1cc(-c2cc(C)nc(C)c2)ccc1Cl (stereo not shown) — half-life (hepatocytes; 1 µM): 3 h
O=c1c(-c2cnn(-c3ccc(Cl)cc3)c2)c(C(F)(F)F)oc2c(O)c(O)ccc12 — half-life (liver microsomes): > 5 h
CCC(=O)N1CCC=C(c2cc3c(Nc4cc5ncsc5cc4F)ncnc3s2)C1 — half-life (liver microsomes): > 2 h
COc1cc(-c2nc3ccc(C(=O)NCCCN4CCN(C(=O)c5ccccc5)CC4)cc3n2C2CCC2)cc(OC)c1OC — half-life (liver microsomes): 0.257 h
CC(C)(C)NC(=O)NC1CC=C(c2cc3c(Nc4cc5ncsc5cc4F)ncnc3s2)CC1 (racemic) — half-life (liver microsomes): > 2 h
O=C1C2=C(CCN(Cc3ccccc3)C2)N2CCN=C2N1Cc1ccc(C(F)(F)F)cc1 — half-life (liver microsomes): 0.171 h
CNC(=O)C1CCN(c2cc(C)ccc2NC(=O)c2ccc(-c3cc(O)ccc3C)c(C)c2)CC1 — half-life (liver microsomes; 2 µM): 1.9 h
O=C(C1CC1)N1CCC=C(c2cc3c(Nc4cc5ncsc5cc4F)ncnc3s2)C1 — half-life (liver microsomes): > 2 h
CC12CC3(C)CC(C)(C1)CC(NC(=O)NC1CCC(Oc4ccc(C(=O)O)cc4)CC1)(C2)C3 (stereo not shown) — half-life (liver microsomes): 0.0583 h
CC(C)C(=O)N1CC=C(c2cc3c(Nc4cc5ncsc5cc4F)ncnc3s2)CC1 — half-life (liver microsomes): > 2 h
CC(C)(C)c1nc(-c2ccc(NC(=O)c3cccs3)cc2Cl)no1 — half-life (liver microsomes; 1 µM, pH 7.4): ~1 h
Cc1ccccc1OC[C@@H](N)c1ccccc1 — half-life (liver microsomes): 2.27 h
O=C(Cc1ccccc1)Nc1nc2ccccc2n1Cc1ccccc1 — half-life (liver microsomes): 0.847 h and 0.85 h

Some of these lines once more:
O=C1C2=C(CCN(Cc3ccccc3)C2)N2CCN=C2N1Cc1ccc(C(F)(F)F)cc1 — half-life (liver microsomes): 0.171 h
CNC(=O)C1CCN(c2cc(C)ccc2NC(=O)c2ccc(-c3cc(O)ccc3C)c(C)c2)CC1 — half-life (liver microsomes; 2 µM): 1.9 h
